Results of several laboratories.
Numbered parts are unrelated; each lists some results of a single study.
Chain of UniProt P11309 (whole entry, looked up): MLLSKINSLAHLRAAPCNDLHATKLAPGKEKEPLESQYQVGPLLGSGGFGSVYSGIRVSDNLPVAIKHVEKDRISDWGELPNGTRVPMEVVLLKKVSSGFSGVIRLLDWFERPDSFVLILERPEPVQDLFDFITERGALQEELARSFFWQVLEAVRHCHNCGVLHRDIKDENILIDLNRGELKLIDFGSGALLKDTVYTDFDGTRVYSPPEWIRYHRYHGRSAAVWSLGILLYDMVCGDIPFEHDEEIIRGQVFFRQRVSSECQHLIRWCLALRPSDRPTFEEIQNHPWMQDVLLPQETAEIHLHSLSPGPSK
Chain of UniProt O60674 (whole entry, looked up): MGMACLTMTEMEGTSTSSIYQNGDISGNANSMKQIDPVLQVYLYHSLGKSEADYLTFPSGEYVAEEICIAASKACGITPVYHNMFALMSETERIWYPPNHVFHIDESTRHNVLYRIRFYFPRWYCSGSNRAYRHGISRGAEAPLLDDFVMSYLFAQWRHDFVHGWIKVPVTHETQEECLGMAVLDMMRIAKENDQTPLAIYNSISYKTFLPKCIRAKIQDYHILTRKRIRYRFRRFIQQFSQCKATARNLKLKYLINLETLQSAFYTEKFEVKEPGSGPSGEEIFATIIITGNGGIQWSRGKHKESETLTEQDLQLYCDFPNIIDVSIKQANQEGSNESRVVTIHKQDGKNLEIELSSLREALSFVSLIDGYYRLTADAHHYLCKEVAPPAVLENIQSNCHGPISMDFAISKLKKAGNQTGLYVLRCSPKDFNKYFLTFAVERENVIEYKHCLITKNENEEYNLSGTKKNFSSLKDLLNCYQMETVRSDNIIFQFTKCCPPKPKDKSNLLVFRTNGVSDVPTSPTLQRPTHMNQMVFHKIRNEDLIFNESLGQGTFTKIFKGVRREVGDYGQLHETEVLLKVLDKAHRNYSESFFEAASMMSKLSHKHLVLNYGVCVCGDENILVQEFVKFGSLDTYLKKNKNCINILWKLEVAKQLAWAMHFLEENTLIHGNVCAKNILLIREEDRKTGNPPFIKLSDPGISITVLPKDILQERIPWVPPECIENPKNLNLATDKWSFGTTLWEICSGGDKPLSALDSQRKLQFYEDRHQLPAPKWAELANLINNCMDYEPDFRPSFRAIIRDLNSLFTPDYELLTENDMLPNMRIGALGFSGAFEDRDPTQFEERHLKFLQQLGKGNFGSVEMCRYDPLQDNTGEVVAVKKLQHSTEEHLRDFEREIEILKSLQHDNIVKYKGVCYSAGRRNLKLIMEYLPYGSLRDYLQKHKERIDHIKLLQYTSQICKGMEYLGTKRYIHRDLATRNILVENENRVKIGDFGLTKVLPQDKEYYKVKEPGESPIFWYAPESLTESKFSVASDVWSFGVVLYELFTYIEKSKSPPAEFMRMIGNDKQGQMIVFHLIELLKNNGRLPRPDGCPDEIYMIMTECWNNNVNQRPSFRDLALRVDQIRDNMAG
Chain of UniProt P0C264 (whole entry, looked up): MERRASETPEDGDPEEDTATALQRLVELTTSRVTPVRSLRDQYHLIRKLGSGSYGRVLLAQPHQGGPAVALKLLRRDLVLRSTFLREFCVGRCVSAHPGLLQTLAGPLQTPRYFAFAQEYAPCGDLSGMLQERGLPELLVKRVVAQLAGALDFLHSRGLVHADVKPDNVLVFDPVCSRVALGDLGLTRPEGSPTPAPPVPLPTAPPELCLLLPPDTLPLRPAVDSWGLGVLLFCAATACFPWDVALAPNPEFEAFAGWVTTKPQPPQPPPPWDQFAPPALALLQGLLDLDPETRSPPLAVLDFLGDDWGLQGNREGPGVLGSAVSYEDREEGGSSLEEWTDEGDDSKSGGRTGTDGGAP
Chain of UniProt O95819 (whole entry, looked up): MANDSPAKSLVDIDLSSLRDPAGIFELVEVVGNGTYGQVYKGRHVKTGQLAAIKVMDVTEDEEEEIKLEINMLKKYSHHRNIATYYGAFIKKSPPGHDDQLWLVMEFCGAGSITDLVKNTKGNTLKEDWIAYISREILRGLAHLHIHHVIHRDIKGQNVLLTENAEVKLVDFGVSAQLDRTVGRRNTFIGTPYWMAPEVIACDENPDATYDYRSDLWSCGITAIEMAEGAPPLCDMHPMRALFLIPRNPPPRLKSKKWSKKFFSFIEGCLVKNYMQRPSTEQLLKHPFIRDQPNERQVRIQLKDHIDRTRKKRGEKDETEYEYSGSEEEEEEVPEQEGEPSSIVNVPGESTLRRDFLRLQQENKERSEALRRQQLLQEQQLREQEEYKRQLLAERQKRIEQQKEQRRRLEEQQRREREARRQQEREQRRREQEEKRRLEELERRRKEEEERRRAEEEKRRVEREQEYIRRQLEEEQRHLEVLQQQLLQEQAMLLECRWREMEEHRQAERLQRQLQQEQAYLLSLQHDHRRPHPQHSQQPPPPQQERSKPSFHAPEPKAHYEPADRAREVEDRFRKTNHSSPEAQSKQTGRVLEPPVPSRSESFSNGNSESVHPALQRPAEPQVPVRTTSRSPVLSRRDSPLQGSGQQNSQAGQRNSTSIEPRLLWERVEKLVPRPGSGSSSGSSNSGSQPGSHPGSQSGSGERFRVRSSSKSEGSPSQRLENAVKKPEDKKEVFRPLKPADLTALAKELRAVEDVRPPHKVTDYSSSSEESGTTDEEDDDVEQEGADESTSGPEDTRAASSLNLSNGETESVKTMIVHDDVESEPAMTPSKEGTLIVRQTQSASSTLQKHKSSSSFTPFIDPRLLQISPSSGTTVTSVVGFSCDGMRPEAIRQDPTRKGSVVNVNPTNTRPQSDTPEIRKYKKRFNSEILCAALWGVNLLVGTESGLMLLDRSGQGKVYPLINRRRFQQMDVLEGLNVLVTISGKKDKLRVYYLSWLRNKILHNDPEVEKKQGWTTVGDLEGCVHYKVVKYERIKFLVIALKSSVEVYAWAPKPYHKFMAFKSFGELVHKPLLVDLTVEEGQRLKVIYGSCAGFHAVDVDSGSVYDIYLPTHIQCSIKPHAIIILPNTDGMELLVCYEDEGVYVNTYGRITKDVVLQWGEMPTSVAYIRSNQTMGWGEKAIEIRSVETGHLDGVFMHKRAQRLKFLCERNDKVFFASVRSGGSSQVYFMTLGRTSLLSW
Chain of UniProt P42336 (whole entry, unmodified, looked up): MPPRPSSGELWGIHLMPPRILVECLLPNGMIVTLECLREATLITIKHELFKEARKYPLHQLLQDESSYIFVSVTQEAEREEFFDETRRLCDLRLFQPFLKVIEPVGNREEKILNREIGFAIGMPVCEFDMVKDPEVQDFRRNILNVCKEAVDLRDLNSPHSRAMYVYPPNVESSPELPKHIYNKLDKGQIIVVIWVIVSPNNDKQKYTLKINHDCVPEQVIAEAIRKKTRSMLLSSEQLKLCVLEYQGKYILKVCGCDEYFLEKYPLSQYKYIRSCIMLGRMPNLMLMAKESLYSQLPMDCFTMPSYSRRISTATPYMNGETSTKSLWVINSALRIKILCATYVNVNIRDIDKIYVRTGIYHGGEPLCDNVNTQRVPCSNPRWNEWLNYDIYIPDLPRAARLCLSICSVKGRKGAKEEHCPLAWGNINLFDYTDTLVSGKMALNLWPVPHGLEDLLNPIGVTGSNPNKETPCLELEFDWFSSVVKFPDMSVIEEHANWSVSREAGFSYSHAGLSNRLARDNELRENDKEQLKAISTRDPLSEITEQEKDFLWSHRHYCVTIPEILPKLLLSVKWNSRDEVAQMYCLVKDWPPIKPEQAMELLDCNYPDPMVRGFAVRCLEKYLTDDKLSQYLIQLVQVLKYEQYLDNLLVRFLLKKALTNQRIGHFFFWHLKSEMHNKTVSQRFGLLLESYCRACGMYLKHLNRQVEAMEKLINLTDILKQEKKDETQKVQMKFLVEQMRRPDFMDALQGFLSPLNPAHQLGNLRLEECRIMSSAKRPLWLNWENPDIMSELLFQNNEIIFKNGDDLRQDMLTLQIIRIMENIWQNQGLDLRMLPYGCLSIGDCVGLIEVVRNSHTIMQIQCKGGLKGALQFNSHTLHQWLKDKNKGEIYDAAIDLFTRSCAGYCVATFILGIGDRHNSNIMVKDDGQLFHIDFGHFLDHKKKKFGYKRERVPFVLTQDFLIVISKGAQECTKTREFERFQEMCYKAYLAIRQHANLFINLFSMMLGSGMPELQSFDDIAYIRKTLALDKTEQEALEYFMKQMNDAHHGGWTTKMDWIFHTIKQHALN
Chain of UniProt P53778 (whole entry, looked up): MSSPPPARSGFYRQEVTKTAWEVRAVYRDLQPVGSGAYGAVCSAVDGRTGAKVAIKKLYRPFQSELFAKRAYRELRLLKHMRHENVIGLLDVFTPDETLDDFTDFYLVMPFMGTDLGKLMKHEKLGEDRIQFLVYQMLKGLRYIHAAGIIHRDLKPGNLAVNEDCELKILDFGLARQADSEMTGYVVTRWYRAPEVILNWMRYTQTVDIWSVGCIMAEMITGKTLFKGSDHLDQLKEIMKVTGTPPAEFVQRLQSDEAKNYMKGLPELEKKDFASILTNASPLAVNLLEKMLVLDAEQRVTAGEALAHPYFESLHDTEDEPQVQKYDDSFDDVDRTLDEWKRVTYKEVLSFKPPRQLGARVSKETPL

Study 1
Matrix: hydrocarbon/water
pH: 7.4
The logD of `CC[C@H]1NC(=O)[C@H](CC(C)C)NC(=O)[C@H](Cc2ccc(O)cc2)NC(=O)[C@H]2CCCN2C(=O)[C@H](CC2CCCCC2)NC(=O)[C@H](CC2CCCCC2)NC1=O` is reported as 0.395.
`CC(C)CC1NC(=O)CN(CC2CCOCC2)C(=O)C2CCCN2C(=O)C(CC(C)C)NC(=O)C(C)N(C)C(=O)C(CC(C)C)NC(=O)CN(Cc2ccc3c(c2)OCO3)C(=O)C2CCCN2C(=O)C(C)NC(=O)C(C)N(C)C1=O` (stereo not shown) gave a logD of 1.51.
`CC(C)C[C@@H]1NC(=O)[C@H](C)N(C)C(=O)[C@H](CC2CCCCC2)NC(=O)[C@H](C)N(C)C(=O)[C@H]2CCCN2C(=O)[C@H](CC2CCCCC2)NC(=O)CN(CC(C)C)C(=O)[C@H](CC(C)C)NC(=O)Cn2cc(nn2)CN(C)C1=O` gave a logD of 2.16.
With `CC[C@@H]1NC(=O)[C@@H](CC)NC(=O)[C@H](CC(C)C)NC(=O)[C@H](Cc2ccccc2)NC(=O)[C@H]2CCCN2C(=O)[C@H](CC(C)C)NC1=O` the logD was -0.0718.
`CCCN1CC(=O)N[C@@H](CC(C)C)C(=O)N2CCC[C@@H]2C(=O)N(C)[C@@H](C)C(=O)N[C@@H](CC)C(=O)N(C)[C@@H](C)C(=O)N[C@@H](CC(C)C)C(=O)N(C)Cc2cn(nn2)CC(=O)N[C@@H](CC(C)C)C1=O` gave a logD of -1.78.
With `CC(C)CC1NC(=O)CN(CC2CCOCC2)C(=O)C2CCCN2C(=O)C(CC(C)C)NC(=O)C(C)N(C)C(=O)C(CC(C)C)NC(=O)CN(CCCOC(C)C)C(=O)C2CCCN2C(=O)C(Cc2ccccc2)NC(=O)C(C)N(C)C1=O` (stereo not shown) the logD was 2.69.
For `CC[C@@H]1NC(=O)[C@@H](CC(C)C)NC(=O)[C@H](CC(C)C)NC(=O)[C@H](Cc2ccccc2)NC(=O)[C@H]2CCCN2C(=O)[C@H](CC(C)C)NC1=O`, the logD was 1.
`CCCCCN1CC(=O)NC(CC(C)C)C(=O)N(C)C(C)C(=O)NC(C)C(=O)N2CCCC2C(=O)N(CCCOC(C)C)CC(=O)NC(CC(C)C)C(=O)N(C)C(C)C(=O)NC(CC(C)C)C(=O)N2CCCC2C1=O` (stereo not shown) has a logD of 2.55.
With `CC[C@@H]1C(=O)N(C)[C@@H](CC2CCCCC2)C(=O)N[C@@H](CC2CCCCC2)C(=O)N2CCC[C@@H]2C(=O)N(C)[C@@H](Cc2ccc(O)cc2)C(=O)N[C@@H](CC(C)C)C(=O)N1C` the logD was 3.25.
For `CCC[C@H]1C(=O)N[C@@H](CC)C(=O)N(C)[C@@H](C)C(=O)N[C@@H](CC(C)C)C(=O)N(C)Cc2cn(nn2)CC(=O)N[C@@H](CC(C)C)C(=O)N(C)[C@@H](C)C(=O)N[C@@H](CC(C)C)C(=O)N2CCC[C@@H]2C(=O)N1C`, the logD was -0.345.
For `CCCN1CC(=O)N[C@@H](CC)C(=O)N(C)[C@@H](C)C(=O)N[C@@H](CC(C)C)C(=O)N(C)Cc2cn(nn2)CC(=O)N[C@@H](CC(C)C)C(=O)N(C)[C@@H](C)C(=O)N[C@@H](CC(C)C)C(=O)N2CCC[C@@H]2C1=O`, the logD was -0.908.
The logD of `CCC[C@@H]1NC(=O)[C@H](C)N(C)C(=O)[C@H](CC(C)C)NC(=O)Cn2cc(nn2)CN(C)C(=O)[C@H](CC(C)C)NC(=O)[C@H](C)N(C)C(=O)[C@H](CC)NC(=O)[C@H](CCC)N(C)C(=O)[C@H]2CCCN2C1=O` is reported as -0.834.

Study 2
SMILES: C[C@H](c1ccnc(Nc2nc3ccc(-c4cc(N(C)C)ncn4)cc3[nH]2)c1)N1CCN(C(=O)CC(F)(F)F)CC1
Observed: cell-free assay
Technique: competition with immobilised ligand
Concentration: 0.1 µM
For MAP4K4 (Homo sapiens, UniProt O95819): remaining binding read 91%.
The remaining binding was 79% (PIM1 (Homo sapiens, UniProt P11309)).
EIF2AK2 (Homo sapiens, UniProt P19525) — remaining binding: 100%.
The remaining binding was 53% (PIK3CA (Homo sapiens, UniProt P42336, E542K)).
It gave 100% for remaining binding (PRKD3 (Homo sapiens, UniProt O94806)).
The remaining binding was 97% (EGFR (Homo sapiens, UniProt P00533)).
For Tyrosine-protein kinase ABL1, phosphorylated (ABL1, Homo sapiens, UniProt P00519, T315I): remaining binding read 89%.
The remaining binding was 100% (STK35 (Homo sapiens, UniProt Q8TDR2)).
The remaining binding was 97% (MUSK (Homo sapiens, UniProt O15146)).
It gave 100% for remaining binding (SBK3 (Homo sapiens, UniProt P0C264)).
The remaining binding was 95% (MAPK12 (Homo sapiens, UniProt P53778)).
eIF-2-alpha kinase GCN2, C-terminal kinase domain (EIF2AK4, Homo sapiens, UniProt Q9P2K8, S808G) — remaining binding: 58%.
It gave 100% for remaining binding (MET (Homo sapiens, UniProt P08581, Y1235D)).
BLK (Homo sapiens, UniProt P51451) — remaining binding: 79%.
MERTK (Homo sapiens, UniProt Q12866) — remaining binding: 97%.
The remaining binding was 100% (Tyrosine-protein kinase JAK2, JH1 (JAK2, Homo sapiens, UniProt O60674)).

Study 3
Host: mouse
Matrix: microsomes or S9
Concentration: 2 µM
Time: 0.5 h
`C(=C\c1ccccc1)/CN1CCN(c2cnc3ccccc3n2)CC1` gave a remaining compound of 40.3%.
The remaining compound of `CC(C)Oc1cc(N2C=NN(C)CC2)ccc1[N+](=O)[O-]` is reported as 0.106%.
`CCC(c1nc2c3c(C)c(C)n(-c4cc(C)ccn4)c3ncn2n1)N1C(=O)c2ccccc2C1=O` (stereo not shown) gave a remaining compound of 53%.
With `CCN(C(=O)c1cc(C)c(C)[nH]c1=O)[C@H]1COC[C@@H]1O` the remaining compound was 97.6%.
The remaining compound of `Cc1ncn(CCS(=O)(=O)c2ccc(C(C)(C)C)cc2)c(=O)c1C` is reported as 29.2%.
With `Cc1noc(-c2cccn2Cc2ccc(F)cc2Cl)n1` the remaining compound was 48.8%.
`Cc1ccc(S(=O)(=O)c2c(-c3ccccc3)n(C#Cc3ccccc3)c3ccccc23)cc1` has a remaining compound of 24.4%.
For `O=C1CC2CS(=O)(=O)CC2N1C1CCCCC1` (stereo not shown), the remaining compound was 66.5%.
For `O=C(Nc1ccc(N2CCCS2(=O)=O)cc1)c1cc(C2CC2)nc2ccccc12`, the remaining compound was 83.9%.
`Cc1n[nH]c(O)c1C(c1ccc(F)cc1)c1c(C)n[nH]c1O` gave a remaining compound of 62.3%.
The remaining compound of `O=C(N1CCOC2(CCCC2)C1)C1(c2ccccc2)CCOCC1` is reported as 0.32%.
`Cc1nn(-c2ccccn2)c2c1-c1oncc1CC2` gave a remaining compound of 1.15%.
With `CCOC(=O)N1CCN(C2CCCc3sccc32)CC1` (stereo not shown) the remaining compound was less than 1%.

Study 4
Target: Calcium/calmodulin-dependent protein kinase type II subunit gamma (CAMK2G, Homo sapiens, UniProt Q13555)
Chain of UniProt Q13555 (whole entry, looked up): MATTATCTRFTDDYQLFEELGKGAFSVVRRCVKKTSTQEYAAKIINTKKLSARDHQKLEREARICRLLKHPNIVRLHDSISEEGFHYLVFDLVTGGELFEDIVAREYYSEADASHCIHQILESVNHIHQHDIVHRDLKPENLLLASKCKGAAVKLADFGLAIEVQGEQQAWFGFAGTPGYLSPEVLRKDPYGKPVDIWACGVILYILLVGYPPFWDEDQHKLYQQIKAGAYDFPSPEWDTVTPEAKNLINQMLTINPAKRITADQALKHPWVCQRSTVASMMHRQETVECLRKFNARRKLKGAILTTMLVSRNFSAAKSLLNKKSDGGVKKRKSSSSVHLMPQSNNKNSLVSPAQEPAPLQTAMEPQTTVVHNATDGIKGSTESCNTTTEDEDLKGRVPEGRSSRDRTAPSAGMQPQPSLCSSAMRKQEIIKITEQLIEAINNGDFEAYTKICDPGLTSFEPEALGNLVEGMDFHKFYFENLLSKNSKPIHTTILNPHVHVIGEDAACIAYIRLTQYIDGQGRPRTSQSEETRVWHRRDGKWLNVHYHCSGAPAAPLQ
Observed: enzyme activity
Mode: inhibitor
Concentration: 0.5 µM
Relative to: control
`CC(=O)c1ccc(N2CCOCC2)cc1O` gave a remaining activity of 90.2%.
`O=C1Cc2c([nH]c3ccc([N+](=O)[O-])cc23)-c2ccccc2N1` has a remaining activity of 94.5%.
The remaining activity of `CCCC(=O)Oc1ccc2[nH]c(C(=O)c3cc4ccccc4[nH]3)cc2c1` is reported as 99.4%.
`Cc1ccc(NC2=CC(=O)c3sc(C)nc3C2=O)cc1` has a remaining activity of 90.4%.
`COc1cc(Nc2c(C#N)cnc3cc(OCCCN4CCN(C)CC4)c(OC)cc23)c(Cl)cc1Cl` has a remaining activity of 131%.
For `CC#CC(=O)Nc1cc2c(Nc3ccc(F)c(Cl)c3)ncnc2cn1`, the remaining activity was 97.7%.
The remaining activity of `Cc1cc(Nc2nc(-c3ccccc3)nc3ccccc23)n[nH]1` is reported as 95.9%.
The remaining activity of `CSc1nc(-c2ccnc(N[C@@H](C)c3ccccc3)c2)c(-c2ccc(F)cc2)[nH]1` (racemic) is reported as 102%.
For `COc1ccc(S(=O)(=O)N(CCO)c2ccccc2CN(C)CC=Cc2ccc(Cl)cc2)cc1`, the remaining activity was 98.6%.
`NC(=O)c1ccc(N(C(N)=O)c2c(F)cccc2F)nc1-c1ccc(F)cc1F` has a remaining activity of 105%.
`O=S(=O)(NCCNC/C=C/c1ccc(Br)cc1)c1cccc2cnccc12` has a remaining activity of 98.7%.

Repeated from above (study 2):
The remaining binding was 97% (MUSK (Homo sapiens, UniProt O15146)).
EIF2AK2 (Homo sapiens, UniProt P19525) — remaining binding: 100%.
The remaining binding was 95% (MAPK12 (Homo sapiens, UniProt P53778)).
For Tyrosine-protein kinase ABL1, phosphorylated (ABL1, Homo sapiens, UniProt P00519, T315I): remaining binding read 89%.
The remaining binding was 79% (PIM1 (Homo sapiens, UniProt P11309)).
MERTK (Homo sapiens, UniProt Q12866) — remaining binding: 97%.
It gave 100% for remaining binding (SBK3 (Homo sapiens, UniProt P0C264)).
It gave 100% for remaining binding (MET (Homo sapiens, UniProt P08581, Y1235D)).
